Measured values from different studies.
Numbered parts are unrelated; each lists some results of a single study. Several values in a cell are separate wells, animals, samples, runs or records.
Sequence of UniProt P08311 (whole entry, looked up): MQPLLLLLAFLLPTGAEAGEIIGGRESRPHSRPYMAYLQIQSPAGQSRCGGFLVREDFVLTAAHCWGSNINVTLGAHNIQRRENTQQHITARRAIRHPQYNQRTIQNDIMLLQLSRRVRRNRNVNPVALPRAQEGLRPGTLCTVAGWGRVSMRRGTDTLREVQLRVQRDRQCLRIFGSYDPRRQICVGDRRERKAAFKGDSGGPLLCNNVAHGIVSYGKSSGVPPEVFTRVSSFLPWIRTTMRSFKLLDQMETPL

Series 1
Cell line: HEK-293T-ACE2
Tested at: concentration not given
Reference: vehicle
Measurement: cell number
CC(C)C[C@H](NC(=O)[C@H](Cc1ccccc1)NC(=O)c1cnccn1)B(O)O: 69.2%
CC(=O)NO: 102%
CC(C)OC(=O)[C@H](C)N[P@](=O)(OC[C@H]1O[C@@H](n2ccc(=O)[nH]c2=O)[C@](C)(F)[C@@H]1O)Oc1ccccc1: 98.3%
OCCN(CCO)c1nc(N2CCCCC2)c2nc(N(CCO)CCO)nc(N3CCCCC3)c2n1: 106%
Cl.N=C(N)N: 99.8%
CN(C)CCc1c[nH]c2ccc(CS(=O)(=O)N3CCCC3)cc12.O=C(O)CC(O)C(=O)O: 96.4%
CCCC(CCC)C(=O)[O-].[Na+]: 101%
Br.CN1[C@@H]2CC[C@H]1C[C@@H](OC(=O)C(O)c1ccccc1)C2 (stereo partly drawn): 102%

Series 2
Target: Delta-type opioid receptor (OPRD1, Homo sapiens, UniProt P41143)
Sequence of UniProt P41143 (whole entry, looked up): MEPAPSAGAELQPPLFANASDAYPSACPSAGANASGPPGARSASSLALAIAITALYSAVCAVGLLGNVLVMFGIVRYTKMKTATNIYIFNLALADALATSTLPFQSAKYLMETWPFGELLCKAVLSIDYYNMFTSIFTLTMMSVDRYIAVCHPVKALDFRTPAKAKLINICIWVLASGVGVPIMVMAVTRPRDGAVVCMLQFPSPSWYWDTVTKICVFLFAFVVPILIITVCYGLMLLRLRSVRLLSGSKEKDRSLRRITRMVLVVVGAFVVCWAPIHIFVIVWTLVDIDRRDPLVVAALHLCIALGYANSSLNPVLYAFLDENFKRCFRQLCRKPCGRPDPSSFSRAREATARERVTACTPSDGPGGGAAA
Read-out: binding
Method: radioligand binding
Tested at: 10 µM
Measurement: inhibition
CN(C)C(=O)Cn1cc(-c2nc([C@@](C)(c3ccc(-c4cnc(N)nc4)cc3)C3CC3)no2)cn1: -7.13%
Cc1cc(C)c(-n2ccn3nc(-c4cccnc4)cc23)cc1NC(=O)c1cc(C#N)cc(S(F)(F)(F)(F)F)c1: 18.7%
CCOC(=O)c1cc2cc(-c3cc(C(=O)NCc4ccc(C(=O)O)cc4)nn3C)ccc2[nH]1: -9.42%
COc1cc(-c2cn(C3CCc4ccccc4N(CC(F)(F)F)C3=O)nn2)ccc1-n1ccc(C)n1 (stereo not drawn): 16.7%
C[C@@H]1CN(c2cc(-c3nn(C)c4ccc(OC5(C)CC5)cc34)ncn2)C[C@H](C)O1: 23.3%
CC1=C(C#N)C(c2ccc3c(c2)c(NC(=O)c2ccccc2C)nn3C)C(C#N)=C(C)N1: 17.7%
O=C(NC[C@@H]1[C@H]2CN(C(=O)OCc3cc(C(F)(F)F)cc(C(F)(F)F)c3)C[C@@H]12)c1ccc2[nH]nnc2c1: 19.6%
COc1cccc(CNC(=O)c2nc3scc(COCc4ccc(C(=O)O)cc4)c3c(=O)[nH]2)c1: -5.04%
CCCOc1ccc([C@H]2[C@H](C(=O)O)[C@@H](c3ccc4c(c3)OCO4)CN2CC(=O)Nc2c(CC)cccc2CC)cc1: 9.89%
O=C(Nc1ccc(-n2nc(-c3cccnc3)cc2C(F)(F)F)cn1)c1ccc(-c2ccccc2)c(F)c1: 3.77%
CC(C)(O)c1cncc(-c2nc3ccc(F)cc3n2C2CC2)c1: -10.9%
O=C(O)c1cc(-c2ccc(C3CCNCC3)cc2)c2ccc(-c3ccc(C(F)(F)F)cc3)cc2c1: 36.4%
CS(=O)(=O)NCC[C@H](NC(=O)c1cncc2c1cnn2-c1ccc(F)cc1)c1ccnc(S(C)(=O)=O)c1: -2.19%
COCc1nc2cnc3cc(-c4c(C)noc4C)c(OC[C@H]4CCNC4)cc3c2n1[C@H](C)c1ccccc1: 38.5%
Cc1c(NC(=O)c2cc(C(N)=O)nc3cc(F)ccc23)c(C(F)(F)F)nn1Cc1ccc(C(C)(C)C)cc1: -9.45%
CN1C(=O)[C@@H](N2CCc3cn(Cc4ccccc4)nc3C2=O)COc2ccccc21: 28.8%
CCOCCn1cc(C(=O)Nc2ccc(-n3nc(-c4cccnc4)cc3C(F)(F)F)cn2)ccc1=O: -6.39%
O[C@]1(C(F)(F)F)CCCC[C@H]1Nc1ccc(F)cc1: 21.4%
CNC(=O)Nc1ccc2c(c1)[C@]1(CC2)OC(=O)N(CC(=O)N(Cc2ccc(F)cc2)[C@@H](C)C(F)(F)F)C1=O: -10.6%
CC(=O)N1CCC(c2ccc(C(=O)NC(=N)N)cc2C(F)(F)F)CC1: -5.35%
O=C(Nc1cccnn1)N1CC(CC=Cc2cncc(Oc3ccc(C(F)(F)F)cn3)n2)C1: -16.3%
COc1nc2ccc([C@@](O)(c3ccccc3)C3CCN(C(C)=O)CC3)cc2c(Cl)c1Cc1ccc(-n2cccn2)cc1: 7.18%
O=C1CCc2cc(Nc3cc(OC4CCOCC4)c([N+](=O)[O-])cc3Cl)ccc2N1: 3.32%

Series 3
Cell line: mouse MPNST tumor cells
Method: high-content immunofluorescence imaging
Measured: nuclear SOX9
Tested at: 10 µM
Time: 12 h
Setting: mean of 2 replicates
Reference: DMSO control
Reading: higher = more nuclear SOX9
Measurement: nuclear SOX9 intensity
CN1C[C@H](C(=O)N[C@]2(C)O[C@@]3(O)[C@@H]4CCCN4C(=O)[C@H](Cc4ccccc4)N3C2=O)C[C@@H]2c3cccc4[nH]cc(c34)C[C@H]21: 122 % of DMSO and 120 % of DMSO and 119 % of DMSO
CCCN(CCC)[C@@H]1CCc2cccc(O)c2C1: 101 % of DMSO
C[C@]12CC[C@H]3[C@@H](CCC4=CC(=O)CC[C@@H]43)[C@@H]1CC[C@@H]2O: 75.7 % of DMSO
C[C@@H]1C[C@@H]([C@H](O)CC2CC(=O)NC(=O)C2)C(=O)[C@@H](C)C1: 72.4 % of DMSO
CN(C)c1ccc(/C=C2\CCCN=C2c2cccnc2)cc1: 93.5 % of DMSO
COc1ccc(CCN)cc1OC: 90.5 % of DMSO
NCCCNCCSP(=O)(O)O: 106 % of DMSO
CC12CC(=O)C3C(CCC4=CC(=O)CCC43C)C1CCC2=O (stereo not drawn): 83.8 % of DMSO

Series 4
SMILES: CC(C)S(=O)(=O)c1ccc2nccc(Nc3ccc4sc(C5CCCC5)nc4c3)c2c1.Cl
Method: CCK-8
Measurement: survival
L929 RIPK3-/- reexpressing RIPK3 K51A/R69H; 12.5 µM: 95.7% and 79.6% and 94.3% and 95.3% and 81.2%
L929 RIPK3-/- reexpressing RIPK3 K51A/R69H; 3.125 µM: 97.8% and 96.1% and 96.9% and 98.4% and 93.6%
L929 RIPK3-/- reexpressing RIPK3 K51A; 6.25 µM: 94.4% and 94% and 96.7% and 96.2%
L929 RIPK3-/- reexpressing RIPK3 K51A; 3.125 µM: 91.4% and 98.4% and 99% and 95.8% and 95.1%
L929 RIPK3-/- reexpressing RIPK3 K51A/R69H; 50 µM, with: zVAD: 62.4% and 65.3% and 40.9%
L929 RIPK3-/- reexpressing RIPK3 K51A; 50 µM, with: zVAD: 70.7% and 79.2% and 77.1% and 77.3%
L929 RIPK3-/- reexpressing RIPK3 K51A/R69H; 25 µM: 95% and 71.2% and 61.1% and 92.4% and 59.4%
L929 RIPK3-/- reexpressing RIPK3 K51A/R69H; 50 µM: 61.5% and 41.7% and 64.8% and 42.4%

Other studies, line by line
CC(C)C[C@H](NC(=O)[C@@H](NC(=O)N[C@@H](Cc1ccccc1)C(=O)O)[C@@H]1CCN=C(N)N1)C(=O)N[C@H](C=O)Cc1ccccc1 — IC50 (Cathepsin G (CTSG, Homo sapiens, UniProt P08311)): 3.57 µM

Repeated from above (series 1):
CC(=O)NO: 102%
CC(C)C[C@H](NC(=O)[C@H](Cc1ccccc1)NC(=O)c1cnccn1)B(O)O: 69.2%
Cl.N=C(N)N: 99.8%
OCCN(CCO)c1nc(N2CCCCC2)c2nc(N(CCO)CCO)nc(N3CCCCC3)c2n1: 106%
